Measurements collected from several papers.
Parts stem from different laboratories: compare values within a part only. Changes are numbered by the printed parent chain.

Block 1 — method: RNA Bind-n-Seq; molecule type: RNA; medium: in vitro; concentration: not given; baseline: input RNA pool; reading: higher = stronger binding
Target: RING finger protein unkempt homolog, zinc fingers 1-6, GST-SBP tag (UNK, Homo sapiens, UniProt Q9C0B0, residues 30-357)
Sequence of UniProt Q9C0B0 (30-357, looked up): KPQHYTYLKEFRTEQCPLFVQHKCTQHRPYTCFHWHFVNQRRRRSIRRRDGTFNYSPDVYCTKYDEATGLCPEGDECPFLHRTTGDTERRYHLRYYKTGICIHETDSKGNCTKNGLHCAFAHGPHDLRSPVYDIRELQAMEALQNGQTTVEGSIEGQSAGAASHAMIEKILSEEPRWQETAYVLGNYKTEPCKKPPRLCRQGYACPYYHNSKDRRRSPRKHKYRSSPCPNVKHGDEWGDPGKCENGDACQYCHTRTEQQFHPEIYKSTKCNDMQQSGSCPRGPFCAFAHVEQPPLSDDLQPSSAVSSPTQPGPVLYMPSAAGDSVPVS
Notes: RNA with constant flanks, human-mouse chimeric sites, ends assumed
| Sequence | bound/input enrichment |
| --- | --- |
| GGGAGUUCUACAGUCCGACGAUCUCCCAAAUCCAGCAGCUAGAAGGAGCCUUGAGACAAACACUCCACACGCAGGGAGGGCGAUAACAUUGUACAUUGGUUUACAUUUUUUCCCCCUGUGGAUUUUUCUAUCCUAGUGCUUGCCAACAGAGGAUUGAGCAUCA | 0.261 ratio |
| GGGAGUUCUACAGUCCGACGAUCGUCAACAGCUGCCUCAACCCCAUCCUCUACGCCUUCCUGGAUGAGAACUUCAAGGCCUGCUUUAGAAAGUUCUGCUGUGCAUCUGCCCUGCGCCGGGACGUGCAGGUUUCUGAUCGUGUGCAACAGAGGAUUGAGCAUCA | 0.316 ratio |
| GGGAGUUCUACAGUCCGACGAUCGGAAGUACAAUGAUGGAGAUUGAUGGUGAUAAAGGCAAGCAGGGCGGUCCCACCUACUACAUAGACACCAAUGCCCUCCGCGUGCCCAGGGAGAACAUGGAGGCCAUCUCACCACUCAAGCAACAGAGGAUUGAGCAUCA | 0.219 ratio |
| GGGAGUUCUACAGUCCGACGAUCCAGGGCAUCAUCUCUCGUGCUGUUAGACACCUGUUCAAGAGUAUUGAUGAGAAAAAGACCUCAGCGAUUAAAAAUGGGCUGCCCCCUCCUGAAUUCAAAGUGAAUGCCCAGUUCCUAGAGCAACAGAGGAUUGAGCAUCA | 0.33 ratio |
| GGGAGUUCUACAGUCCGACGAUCGCCACCAAUUCCAGCCAACAUGACCCUUGCUGCCUACAAAGAGAAGAUGAAGGAGCUCCCGCUGGUGUCCUUGUUCUGCUCCUGCUUCUUGUCUGAUCCCCUGAAUAAGUCGUCCUACAACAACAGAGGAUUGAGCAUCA | 0.347 ratio |
| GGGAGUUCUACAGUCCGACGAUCGUGACUGGUGUUAAGAUUUCCCCUCAGCAAAGAAGUGCAGUAGUCACCAUAAUUCCAUCUGUGGUGAGUGCCAGUCAGAUUGUGGAGCUGGUUCCAGAACUCAGUUUAGACAUGGGAACUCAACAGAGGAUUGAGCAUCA | 0.217 ratio |
| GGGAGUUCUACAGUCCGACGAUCGCUCCUCUUCCGCACUCAGCCUGGGGACACUGGGCUGGGACCAGAAUCUUAUUUUUUUUUAAAACUCUCAGUGUAACUGUAUCCCGUGACAUUUCAUUUUUUUUAAAUAGUGUAUUUUUUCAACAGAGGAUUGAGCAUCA | 12.1 ratio |
| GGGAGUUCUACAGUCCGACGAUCAGAGAUAAGACAUCCAGAAAUAUGAGAGGCUCCCGGAUGAAUGGGUUGCCUAGCCCCACUCACAGCGCCCACUGUAGCUUCUACCGAACCAGAACCUUGCAGGCAUUGAGUAAUGAGAAGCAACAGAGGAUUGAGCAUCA | 0.251 ratio |
| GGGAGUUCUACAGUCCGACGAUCAAUUUCCUGUCAUACUUUUUAGACAUUCACAUCAGACGCCUUACUACCCUGGCCACAUUCUAGUUUUGUGUUAUUUCUCAGCUAUGGAUAUGAUCAAAUGAGAACACUGCUUAACUAAUGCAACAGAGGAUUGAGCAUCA | 0.638 ratio |
| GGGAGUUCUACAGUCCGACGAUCCUUCGGAAUGCACUACAACCUUUUCUGACAGUGCUUUCCCUCCCAUAGAUCCACGUUCAAGCUCAAAGAGCAAAGGCUUUGCACGGAGCUCAAACAUCUGAUGAAGAAAGAUUUCUGAGACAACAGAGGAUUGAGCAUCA | 0.254 ratio |
| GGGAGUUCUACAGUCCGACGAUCCUCUUUGAAUCAUUCAAGAGUUUUGAAGGUCUCUUUUAUUUUCUGGGAUCCAUUGUUAACUUUAGUCAGGACCCAGAUGUGCACUUUAAAUAUAUUCAGGCGGCUUGCAAGACUGGGCAACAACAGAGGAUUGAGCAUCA | 0.883 ratio |

Block 2 — method: RNA Bind-n-Seq; molecule type: RNA; medium: in vitro; concentration: 365 nM; baseline: no-protein control; reading: higher = stronger binding
Target: RNA binding protein fox-1 homolog 2, RRM domain, GST-SBP tag (RBFOX2, Homo sapiens, UniProt O43251-10, residues 100-194)
Notes: natural RNA segment, single round, ends assumed
Target sequence (chain): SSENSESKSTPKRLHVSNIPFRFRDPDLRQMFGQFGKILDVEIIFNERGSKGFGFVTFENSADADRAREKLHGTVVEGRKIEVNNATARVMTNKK
| Sequence | RBNS enrichment (R) |
| --- | --- |
| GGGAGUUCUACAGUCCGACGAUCGCCGUUCAUCUUGUGUGUUUGUGACUUACUUUUGUAGCCUGUCAUCUUCUGGGCCCAGAGUCAGGGUCUCUGUGUCCCCUGUGCCUCCUGGGGACUGCUGCUGUCCUGCCUGGAAUUCUCGGGUGCCAA | 0.537 |
| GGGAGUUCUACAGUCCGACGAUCUCACCUCUUCCUCCAAGCCCCGCCCCCUCUGCCCCACGUGCCGGCCCUCCUGGUGCUCUAUCCACUGCAGGGCCAGCCACUCGCCAGGAGGCCACGGGCCACGGGAAGAAUGGAAUUCUCGGGUGCCAA | 0.374 |
| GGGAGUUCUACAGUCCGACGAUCAGAUCCCAGUCCACGAUGAUGAGUCAGGGAGACUCGAUAACUGCUCCUUGGCCAUUCAUUUUCCUCCAGCCCAUAGCUCUGCCCACUCCAGUGUCAAACACCGCCCAGGCUGGAAUUCUCGGGUGCCAA | 0.323 |
| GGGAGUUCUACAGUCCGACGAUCCUGUUCUAAAAACGUAAGUACUCCAUUGUAAUAGGGUGGCAUCUUCAGGUAGUGCACAUAUUGGCAAUAGAGGUCCUGAAUUGUUUUUCUAAGACUGAUCUGAGAGCCAUUGGAAUUCUCGGGUGCCAA | 0.402 |
| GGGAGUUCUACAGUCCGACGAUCCUGGGAGGGGGCCUUCCUCCAGGGAAUGUAACUCUCCCAGGCCCCAGAAUAGCUCCUGGAUCCAAGCCCGGGGCCCGGCCUGGGACACGGCGCUGAGGGUCGGCAGGCUGUGGAAUUCUCGGGUGCCAA | 0.268 |
| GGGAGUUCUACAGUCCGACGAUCUGGUCGCCAAGUAGAGCAAGCCCCCUUUCUCUUCCCAAUCACGUGGCUGAGUGUGGAUGACUUUUAUUUUAGGAGAAGGGCGAUUAACACUUUUGACAGUAUUUUGUUUUUGGAAUUCUCGGGUGCCAA | 0.544 |
| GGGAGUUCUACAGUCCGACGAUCACUUGGUAAUUCAUUAACUCUUUGUAUCUCAGAGUGAAGAUUUGACUUAAACUUUGCAUUGAAAGUUUGGAAAAUUACUUGAAAUAAAAAAAGAUUUUUAUACAAAUACAUGGAAUUCUCGGGUGCCAA | 0.78 |
| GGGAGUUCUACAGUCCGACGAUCGUGGAAUAAGGAAACCCAGUGGAGCUAUUACACUUUUAAAUGUUCUAGCCAAAACAAAUUGCCAGUAUGGUUGAGGAAUUGAAUAUCAGAUGGCAUGCAGUCUCCCCUCCUGGAAUUCUCGGGUGCCAA | 1.5 |
| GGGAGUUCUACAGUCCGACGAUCAAUCCCAACCUGUUAGUCCCAGUAGUUUUGUUUUAACAUGGUCUUUUUCAACUUUGUUUCCUGUUUAACUACAGAUGACUUCUGUUGUAGACUCACAAGUUUAACUGUUGUGGAAUUCUCGGGUGCCAA | 0.308 |
| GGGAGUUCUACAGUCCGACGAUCACAUUCCAUCCUUCACCCCCUCCUCUGGCACAGGCCACCACUGCGGUGCUGUGCCUUCAGAUGGGAGGUGGGCGCGGUGGCCUCCUCCUUCCCUCCAGGACCUGCCCGUGUGGAAUUCUCGGGUGCCAA | 1.12 |
| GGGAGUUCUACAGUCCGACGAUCUACAGGUGGGAUUUCAUGGGUCCAUGUGUUACAAAAAUAAGAAUUGGAGCAUUAACUUGAAAUUGUCUUCAAGGACUUGCUAUGUGCACUUCUUCACACCGGUACAUUCUUGGAAUUCUCGGGUGCCAA | 0.381 |
| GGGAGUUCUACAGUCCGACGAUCCUCGAGACUCCUGUUUGUGAGGGACUCUUACAAGGAUAAGAGCAAGGCCACACCACUUCCGCUGUGUAUCAGUCUAUCAUACACUCCGCACGGUCACAUGAUCACUUCACUGGAAUUCUCGGGUGCCAA | 0.617 |

Block 3 — target: CCNA2, cyclin fold, Cln2 fusion (human); method: yeast growth competition, sequencing; medium: yeast; notes: strong parent motif; baseline: not given; reading: higher = stronger binding
Parent: CDC25A docking peptide (human); PPHRRRLLFACSP
| Change | normalised enrichment score |
| --- | --- |
| PPHRRRLLFTCSP [A10T] | 3.28 |
| PPHRRRLPFACSP [L8P] | 0.642 |
| PPKRRRLLFACSP [H3K] | 2.07 |
| PPHRRRLLFAWSP [C11W] | 2.04 |
| CPHRRRLLFACSP [P1C] | 1.8 |
| PPHRRRLLFACEP [S12E] | 3.63 |
| PKHRRRLLFACSP [P2K] | 3.01 |
| PPHRRRLLFACSC [P13C] | 2.67 |
| PPHRRRLWFACSP [L8W] | 2.06 |
| PPHRRRLLFACSQ [P13Q] | 2.26 |
| PPMRRRLLFACSP [H3M] | 3.57 |
| PPHRRRLLFACSI [P13I] | 1.78 |
| PPHRRRLLFALSP [C11L] | 2.13 |
| KPHRRRLLFACSP [P1K] | 3 |
| PQHRRRLLFACSP [P2Q] | 2.7 |

Block 4 — method: universal PBM; molecule type: double-stranded DNA, one strand shown; medium: in vitro; concentration: 600 nM; reading: higher = stronger binding
Target: Sal-like protein 4, full length isoform A (SALL4, Homo sapiens, UniProt Q9UJQ4, residues 1-1053)
Sequence of UniProt Q9UJQ4 (whole entry, looked up): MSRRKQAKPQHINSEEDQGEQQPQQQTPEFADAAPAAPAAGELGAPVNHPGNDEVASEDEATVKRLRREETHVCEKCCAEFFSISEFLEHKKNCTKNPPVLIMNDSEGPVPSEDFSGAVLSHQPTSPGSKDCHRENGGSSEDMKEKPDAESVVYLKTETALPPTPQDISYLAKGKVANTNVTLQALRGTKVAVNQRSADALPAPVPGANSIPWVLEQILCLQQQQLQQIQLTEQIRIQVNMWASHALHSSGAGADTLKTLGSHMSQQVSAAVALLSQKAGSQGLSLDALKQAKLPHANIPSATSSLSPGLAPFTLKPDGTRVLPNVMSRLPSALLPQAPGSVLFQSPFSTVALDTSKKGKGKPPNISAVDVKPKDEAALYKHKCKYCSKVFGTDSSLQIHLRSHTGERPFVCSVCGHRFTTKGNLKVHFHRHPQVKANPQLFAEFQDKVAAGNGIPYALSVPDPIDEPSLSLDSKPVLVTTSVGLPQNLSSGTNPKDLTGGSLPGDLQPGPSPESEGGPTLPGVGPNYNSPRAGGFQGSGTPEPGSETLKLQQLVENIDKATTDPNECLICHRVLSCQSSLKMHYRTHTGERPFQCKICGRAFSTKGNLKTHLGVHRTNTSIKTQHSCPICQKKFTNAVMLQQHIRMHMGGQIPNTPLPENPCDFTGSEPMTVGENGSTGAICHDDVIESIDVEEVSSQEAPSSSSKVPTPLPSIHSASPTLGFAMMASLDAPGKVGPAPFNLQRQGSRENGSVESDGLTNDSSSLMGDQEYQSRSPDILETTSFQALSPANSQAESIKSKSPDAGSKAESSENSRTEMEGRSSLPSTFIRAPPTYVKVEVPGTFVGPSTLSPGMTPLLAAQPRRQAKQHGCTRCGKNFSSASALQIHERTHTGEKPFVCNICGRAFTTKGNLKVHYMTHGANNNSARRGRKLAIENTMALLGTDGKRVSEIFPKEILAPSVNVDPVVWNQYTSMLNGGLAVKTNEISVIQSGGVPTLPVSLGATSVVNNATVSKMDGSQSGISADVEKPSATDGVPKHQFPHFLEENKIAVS
Notes: 8-mer, flanks averaged, mean of replicates
| Sequence | E-score |
| --- | --- |
| ACCTATCA | 0.0134 |
| AATTGAAG | 0.147 |
| CTCAACGA | -0.0512 |
| CCTTTTAA | 0.0828 |
| ACTTACGA | 0.153 |
| ACAGCCCT | -0.289 |
| CTATCCCA | -0.109 |
| CATTTCCA | 0.233 |
| AGTCACAG | 0.0376 |
| AGGTGACT | -0.0126 |
| CGTCAGAG | -0.0719 |
| CGCAGGAA | -0.134 |
| CGAGTGAC | -0.215 |
| CCCGGACA | -0.117 |
| GACACGGA | -0.152 |

Block 5 — method: protein binding microarray; molecule type: double-stranded DNA, one strand shown; medium: in vitro; concentration: not given; baseline: not given; reading: higher = stronger binding
Target: Histone acetyltransferase KAT6A, both winged helices, GST fusion (KAT6A, Homo sapiens, UniProt Q92794, residues 1-181)
Notes: 8-mer, flanks averaged, mean of 2 arrays, mostly near background
Target sequence (chain): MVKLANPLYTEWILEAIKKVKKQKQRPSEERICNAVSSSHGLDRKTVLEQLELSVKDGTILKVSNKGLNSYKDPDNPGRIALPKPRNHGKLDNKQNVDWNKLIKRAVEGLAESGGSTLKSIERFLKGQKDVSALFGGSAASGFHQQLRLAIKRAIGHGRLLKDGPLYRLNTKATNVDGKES
| Sequence | E-score |
| --- | --- |
| GTCAACTA | -0.0831 |
| CTTCTGAA | -0.0684 |
| AACTAAAA | -0.0818 |
| ATTAAGGC | -0.16 |
| GGCTGCTA | -0.0621 |
| AGAGACTC | -0.347 |
| ATTGCAGC | -0.0277 |
| TATCCGAA | 0.104 |
| ATGCAAGA | -0.271 |
| CCCTTCGC | -0.0181 |
| AAAGGCCG | 0.271 |
| CGTATGTC | 0.129 |
| GCATGCTA | -0.0183 |
| AATAGAGA | -0.119 |
| ATGTTTGA | -0.186 |
| TGCACTAA | -0.042 |
| GGTAGCTA | 0.0108 |
| CCATTCGG | -0.0989 |
| GAGTTCCA | -0.115 |
| TAGGTCGA | 0.0241 |
| AATCTATC | -0.0653 |
| ATATCAAC | 0.0447 |
| ATAGGACG | 0.0801 |
| CTCATGAG | -0.0768 |
| ACAGCCAG | -0.294 |

Repeated from above (block 4):
| Sequence | E-score |
| --- | --- |
| ACTTACGA | 0.153 |
| ACAGCCCT | -0.289 |
| CTATCCCA | -0.109 |
| CATTTCCA | 0.233 |
| AGTCACAG | 0.0376 |
| AGGTGACT | -0.0126 |
| CGTCAGAG | -0.0719 |
| CGCAGGAA | -0.134 |
